Assay results pooled from the literature.
Every numbered part comes from another study and shows a few of its results, in no order.
Chain of UniProt P49841 (whole entry, looked up): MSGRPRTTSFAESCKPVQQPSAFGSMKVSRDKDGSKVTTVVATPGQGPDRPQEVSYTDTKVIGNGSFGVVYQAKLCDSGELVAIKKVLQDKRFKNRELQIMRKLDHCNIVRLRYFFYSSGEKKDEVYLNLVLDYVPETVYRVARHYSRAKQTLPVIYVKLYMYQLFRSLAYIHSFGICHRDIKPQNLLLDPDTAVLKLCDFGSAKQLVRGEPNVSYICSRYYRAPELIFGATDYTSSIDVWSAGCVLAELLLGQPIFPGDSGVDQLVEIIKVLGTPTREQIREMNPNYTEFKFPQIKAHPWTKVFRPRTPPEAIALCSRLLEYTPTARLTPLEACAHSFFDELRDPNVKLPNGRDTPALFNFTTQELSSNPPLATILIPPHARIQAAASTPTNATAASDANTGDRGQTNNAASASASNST
Chain of UniProt Q9HC98 (whole entry, looked up): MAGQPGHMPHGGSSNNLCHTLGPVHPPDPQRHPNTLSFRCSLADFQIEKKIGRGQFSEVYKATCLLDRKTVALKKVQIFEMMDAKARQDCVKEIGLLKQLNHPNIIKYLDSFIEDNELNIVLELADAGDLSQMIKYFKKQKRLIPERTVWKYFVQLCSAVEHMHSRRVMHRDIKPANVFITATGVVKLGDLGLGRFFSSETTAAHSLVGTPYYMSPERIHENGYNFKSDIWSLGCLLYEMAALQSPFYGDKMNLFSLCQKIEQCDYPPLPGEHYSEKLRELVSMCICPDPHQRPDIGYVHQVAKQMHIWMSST
Chain of UniProt Q96PY6 (whole entry, looked up): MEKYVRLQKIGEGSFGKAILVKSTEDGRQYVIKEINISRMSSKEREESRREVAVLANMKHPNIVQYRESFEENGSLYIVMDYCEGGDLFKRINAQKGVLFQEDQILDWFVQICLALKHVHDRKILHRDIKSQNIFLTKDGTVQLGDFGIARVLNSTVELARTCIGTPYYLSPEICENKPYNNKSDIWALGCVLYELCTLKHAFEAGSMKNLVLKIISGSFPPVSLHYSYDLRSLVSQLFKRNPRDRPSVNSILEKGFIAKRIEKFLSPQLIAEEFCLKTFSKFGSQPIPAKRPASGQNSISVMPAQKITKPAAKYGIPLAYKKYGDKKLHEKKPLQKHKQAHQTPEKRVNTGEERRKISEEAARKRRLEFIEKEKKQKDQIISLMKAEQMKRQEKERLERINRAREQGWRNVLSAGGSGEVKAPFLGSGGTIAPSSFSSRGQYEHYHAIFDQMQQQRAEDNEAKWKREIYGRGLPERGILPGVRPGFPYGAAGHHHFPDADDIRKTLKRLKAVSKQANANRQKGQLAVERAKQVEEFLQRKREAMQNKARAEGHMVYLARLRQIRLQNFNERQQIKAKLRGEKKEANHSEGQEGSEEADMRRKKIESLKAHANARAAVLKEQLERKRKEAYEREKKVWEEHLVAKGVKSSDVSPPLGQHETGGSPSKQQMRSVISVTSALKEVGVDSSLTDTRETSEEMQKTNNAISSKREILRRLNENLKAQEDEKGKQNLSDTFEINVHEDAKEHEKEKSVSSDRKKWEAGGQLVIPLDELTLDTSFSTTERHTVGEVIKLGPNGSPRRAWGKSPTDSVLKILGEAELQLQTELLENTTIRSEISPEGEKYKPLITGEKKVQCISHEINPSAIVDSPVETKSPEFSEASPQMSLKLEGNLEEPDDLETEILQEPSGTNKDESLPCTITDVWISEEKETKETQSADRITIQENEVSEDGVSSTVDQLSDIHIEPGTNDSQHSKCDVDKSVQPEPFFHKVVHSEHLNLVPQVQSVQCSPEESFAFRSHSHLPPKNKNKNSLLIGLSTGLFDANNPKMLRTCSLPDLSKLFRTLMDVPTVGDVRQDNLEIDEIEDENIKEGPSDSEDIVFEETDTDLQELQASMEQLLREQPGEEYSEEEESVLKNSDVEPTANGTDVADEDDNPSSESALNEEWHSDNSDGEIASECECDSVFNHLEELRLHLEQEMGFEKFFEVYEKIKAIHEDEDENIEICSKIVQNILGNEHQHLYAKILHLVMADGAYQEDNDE
Chain of UniProt Q12866 (whole entry, looked up): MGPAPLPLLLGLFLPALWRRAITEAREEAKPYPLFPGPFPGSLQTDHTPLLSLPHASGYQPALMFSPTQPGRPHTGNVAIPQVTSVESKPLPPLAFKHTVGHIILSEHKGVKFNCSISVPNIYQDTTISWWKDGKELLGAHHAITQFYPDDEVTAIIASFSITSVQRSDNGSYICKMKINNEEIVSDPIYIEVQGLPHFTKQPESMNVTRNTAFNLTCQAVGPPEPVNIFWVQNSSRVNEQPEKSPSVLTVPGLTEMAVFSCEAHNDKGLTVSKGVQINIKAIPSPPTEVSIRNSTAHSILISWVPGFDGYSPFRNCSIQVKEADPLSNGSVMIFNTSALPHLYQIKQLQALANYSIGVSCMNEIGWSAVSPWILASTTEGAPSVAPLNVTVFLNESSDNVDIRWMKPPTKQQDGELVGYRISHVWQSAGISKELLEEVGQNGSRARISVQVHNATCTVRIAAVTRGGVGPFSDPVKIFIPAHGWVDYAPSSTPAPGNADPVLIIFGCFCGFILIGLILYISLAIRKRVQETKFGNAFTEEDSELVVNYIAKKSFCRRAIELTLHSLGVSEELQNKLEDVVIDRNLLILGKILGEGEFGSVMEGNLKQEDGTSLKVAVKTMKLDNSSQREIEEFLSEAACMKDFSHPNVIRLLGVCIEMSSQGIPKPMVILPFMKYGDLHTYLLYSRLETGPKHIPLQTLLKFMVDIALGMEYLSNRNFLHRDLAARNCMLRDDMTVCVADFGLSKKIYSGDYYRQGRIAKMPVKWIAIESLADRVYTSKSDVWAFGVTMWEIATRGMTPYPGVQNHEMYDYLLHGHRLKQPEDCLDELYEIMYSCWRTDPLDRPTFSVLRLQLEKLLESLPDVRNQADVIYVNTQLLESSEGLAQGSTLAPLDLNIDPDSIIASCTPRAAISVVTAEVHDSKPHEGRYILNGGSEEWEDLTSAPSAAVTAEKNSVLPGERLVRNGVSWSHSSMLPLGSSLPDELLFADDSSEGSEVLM
Chain of UniProt P42685 (whole entry, looked up): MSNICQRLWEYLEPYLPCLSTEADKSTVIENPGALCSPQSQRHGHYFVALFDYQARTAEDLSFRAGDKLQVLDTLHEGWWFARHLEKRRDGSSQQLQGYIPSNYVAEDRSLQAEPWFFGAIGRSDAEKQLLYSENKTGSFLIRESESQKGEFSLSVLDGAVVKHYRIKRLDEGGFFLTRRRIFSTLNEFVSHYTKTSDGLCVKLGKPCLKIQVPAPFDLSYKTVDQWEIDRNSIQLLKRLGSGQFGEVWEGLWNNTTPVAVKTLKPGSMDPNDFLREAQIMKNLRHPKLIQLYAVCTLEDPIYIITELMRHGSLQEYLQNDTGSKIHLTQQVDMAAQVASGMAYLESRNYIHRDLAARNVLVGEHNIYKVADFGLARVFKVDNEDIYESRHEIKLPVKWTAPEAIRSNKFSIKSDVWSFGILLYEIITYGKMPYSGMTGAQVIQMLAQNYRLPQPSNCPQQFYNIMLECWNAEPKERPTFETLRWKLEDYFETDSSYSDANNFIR
Chain of UniProt Q8IYT8 (whole entry, looked up): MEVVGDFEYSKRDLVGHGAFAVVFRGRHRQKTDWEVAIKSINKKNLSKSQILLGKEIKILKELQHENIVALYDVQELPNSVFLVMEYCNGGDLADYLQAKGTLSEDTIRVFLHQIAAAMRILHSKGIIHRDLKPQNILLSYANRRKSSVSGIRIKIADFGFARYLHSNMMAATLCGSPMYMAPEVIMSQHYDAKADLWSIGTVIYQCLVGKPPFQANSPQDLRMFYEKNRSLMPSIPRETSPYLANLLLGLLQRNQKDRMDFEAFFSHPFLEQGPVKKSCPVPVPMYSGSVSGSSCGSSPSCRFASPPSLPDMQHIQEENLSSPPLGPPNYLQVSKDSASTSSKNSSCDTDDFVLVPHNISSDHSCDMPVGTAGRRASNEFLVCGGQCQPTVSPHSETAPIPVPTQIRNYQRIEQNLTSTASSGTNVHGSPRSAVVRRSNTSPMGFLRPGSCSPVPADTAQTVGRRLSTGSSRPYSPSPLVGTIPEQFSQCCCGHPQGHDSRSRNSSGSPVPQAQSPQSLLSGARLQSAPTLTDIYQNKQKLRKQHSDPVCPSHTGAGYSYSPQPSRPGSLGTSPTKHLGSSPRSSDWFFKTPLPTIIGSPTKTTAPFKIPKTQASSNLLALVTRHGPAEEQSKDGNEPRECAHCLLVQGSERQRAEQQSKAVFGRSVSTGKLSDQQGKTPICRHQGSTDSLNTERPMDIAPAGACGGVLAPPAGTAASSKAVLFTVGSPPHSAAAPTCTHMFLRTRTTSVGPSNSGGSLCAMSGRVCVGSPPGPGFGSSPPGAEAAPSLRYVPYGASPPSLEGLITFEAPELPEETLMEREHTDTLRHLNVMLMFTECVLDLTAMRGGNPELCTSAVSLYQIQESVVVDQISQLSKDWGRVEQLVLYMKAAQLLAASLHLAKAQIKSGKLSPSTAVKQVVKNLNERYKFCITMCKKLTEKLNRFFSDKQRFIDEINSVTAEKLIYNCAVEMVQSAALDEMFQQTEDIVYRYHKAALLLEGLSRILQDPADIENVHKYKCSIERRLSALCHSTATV
Chain of UniProt Q6PHR2 (whole entry, looked up): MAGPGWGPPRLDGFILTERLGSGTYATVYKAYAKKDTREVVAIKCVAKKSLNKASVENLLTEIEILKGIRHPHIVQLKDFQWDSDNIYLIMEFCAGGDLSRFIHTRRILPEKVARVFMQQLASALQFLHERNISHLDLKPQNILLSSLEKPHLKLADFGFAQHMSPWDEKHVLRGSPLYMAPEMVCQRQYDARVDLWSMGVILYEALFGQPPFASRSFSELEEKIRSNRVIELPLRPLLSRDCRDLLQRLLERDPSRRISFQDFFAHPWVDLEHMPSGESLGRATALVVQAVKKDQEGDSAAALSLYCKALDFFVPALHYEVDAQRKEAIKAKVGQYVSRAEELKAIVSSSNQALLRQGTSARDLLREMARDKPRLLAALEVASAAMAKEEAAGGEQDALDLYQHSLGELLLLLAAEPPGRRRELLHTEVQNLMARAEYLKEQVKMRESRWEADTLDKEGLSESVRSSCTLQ

Series 1
Structure (SMILES): O=C(Nc1ccc(Cl)cc1)c1ccccc1NCc1ccncc1
Observed: enzyme activity
Action: inhibitor
Tested at: 0.5 µM
Relative to: control
For Serine/threonine-protein kinase TBK1 (TBK1, Homo sapiens, UniProt Q9UHD2): remaining activity read 88.4%.
Mitogen-activated protein kinase kinase kinase 14 (MAP3K14, Homo sapiens, UniProt Q99558) — remaining activity: 114%.
It gave 102% for remaining activity (Mitogen-activated protein kinase 3 (MAPK3, Homo sapiens, UniProt P27361)).
It gave 96.2% for remaining activity (Rhodopsin kinase GRK7 (GRK7, Homo sapiens, UniProt Q8WTQ7)).
Serine/threonine-protein kinase Nek6 (NEK6, Homo sapiens, UniProt Q9HC98) — remaining activity: 97.1%.
It gave 79% for remaining activity (Tyrosine-protein kinase Mer (MERTK, Homo sapiens, UniProt Q12866)).
Angiopoietin-1 receptor (TEK, Homo sapiens, UniProt Q02763) — remaining activity: 92.4%.
The remaining activity was 104% (Serine/threonine-protein kinase ULK2 (ULK2, Homo sapiens, UniProt Q8IYT8)).
For Glycogen synthase kinase-3 beta (GSK3B, Homo sapiens, UniProt P49841): remaining activity read 89.3%.
It gave 96% for remaining activity (Serine/threonine-protein kinase Nek1 (NEK1, Homo sapiens, UniProt Q96PY6)).
For Tyrosine-protein kinase FRK (FRK, Homo sapiens, UniProt P42685): remaining activity read 62.8%.
Serine/threonine-protein kinase ULK3 (ULK3, Homo sapiens, UniProt Q6PHR2) — remaining activity: 84.7%.
Serine/threonine-protein kinase A-Raf (ARAF, Homo sapiens, UniProt P10398) — remaining activity: 91.4%.

Series 2
Cell line: normal-adjacent organoid sample G
Method: CellTiter-Glo
Tested at: 1 µM
Setting: replicate mean
Relative to: DMSO
The viability of CC(C)(O)c1cncc(-c2nc3ccc(F)cc3n2C2CC2)c1 is reported as 109%.
Cn1nc(C(=O)NCc2ccc(C(=O)O)cc2)cc1-c1ccc2[nH]ccc2c1 has a viability of 106%.
For C[C@H](c1ccc(F)cc1)N(Cc1cccc(C(=O)O)c1)C(=O)c1cnc2ccccc2c1, the viability was 105%.
CNCc1ccccc1-c1csc([C@@H](C)Nc2nc(C)nc3cc(OC)c(OC)cc23)c1 gave a viability of 72.4%.
NS(=O)(=O)c1cc(NC(=O)Cc2ccccc2)ccc1Oc1cccc(Cl)c1 gave a viability of 106%.
With NS(=O)(=O)c1cc(NC(=O)C2(c3ccccc3Cl)CC2)ccc1Oc1cccc(Cl)c1 the viability was 118%.
With Cc1cc(NC(=O)c2cccc(S(F)(F)(F)(F)F)c2)cc(-n2ccn3nc(-c4cccnc4)cc23)c1 the viability was 85.9%.
With CN(C)C(=O)Cn1cc(-c2nc(C3(c4ccc(-c5cnc(N)nc5)cc4)CC3)no2)cn1 the viability was 104%.
CCOCCn1cc(C(=O)Nc2ccc(-n3nc(-c4cccnc4)cc3C(F)(F)F)cn2)ccc1=O has a viability of 97.4%.
With CN(c1ccnc(CNc2nc(Nc3ccc4c(c3)CC(=O)N4)ncc2C(F)(F)F)n1)S(C)(=O)=O the viability was 114%.

Series 3
Target: PABPC1L2, full length, GST fusion (mouse, UniProt A0ABA7IW68)
Method: RNAcompete
Form: RNA
Matrix: in vitro
Tested at: 20 nM
Setting: 7-mer, probes averaged, single round
Relative to: mean of 7-mers
Reading: higher = stronger binding
Construct (chain): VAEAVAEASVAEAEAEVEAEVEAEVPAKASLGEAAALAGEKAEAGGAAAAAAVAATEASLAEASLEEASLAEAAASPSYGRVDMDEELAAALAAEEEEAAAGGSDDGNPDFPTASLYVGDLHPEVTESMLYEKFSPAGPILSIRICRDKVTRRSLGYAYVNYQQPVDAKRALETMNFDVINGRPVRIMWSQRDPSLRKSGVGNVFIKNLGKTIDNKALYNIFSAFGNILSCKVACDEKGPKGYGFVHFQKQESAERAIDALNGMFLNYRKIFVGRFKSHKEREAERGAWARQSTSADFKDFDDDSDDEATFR
`GGAUGAA` gave a 7-mer Z-score of 0.166.
`UUAACAC` gave a 7-mer Z-score of -0.139.
The 7-mer Z-score of `GAAUGAA` is reported as 0.104.
`CCGCAUU` gave a 7-mer Z-score of -0.298.
`UCACCAA` has a 7-mer Z-score of -0.0246.
`AACAUUA` has a 7-mer Z-score of 0.668.
The 7-mer Z-score of `ACACAAA` is reported as 1.78.
For `UCUAACC`, the 7-mer Z-score was -0.318.

Series 4
Target: RNA binding protein fox-1 homolog 2, RRM domain, GST-SBP tag (RBFOX2, Homo sapiens, UniProt O43251-10, residues 100-194)
Method: RNA Bind-n-Seq
Form: RNA
Matrix: in vitro
Tested at: 365 nM
Setting: natural RNA segment, single round, ends assumed
Relative to: no-protein control
Reading: higher = stronger binding
Target sequence (chain): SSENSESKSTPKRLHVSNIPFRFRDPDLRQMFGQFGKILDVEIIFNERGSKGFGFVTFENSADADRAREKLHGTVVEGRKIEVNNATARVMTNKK
Under “RBNS enrichment (R)”, `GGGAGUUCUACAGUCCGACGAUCGAGCCAAGGCAAGGAUUUGUGUUUGCCAAAAAUGUUCUGGGGACCCAGCCAGUGUGGGUCUGAACAUCCCCGCCCACCCCCAGACUGCAUUCUCAUCAGGGUUUCUUGUGUGGAAUUCUCGGGUGCCAA` is recorded as 0.699.
`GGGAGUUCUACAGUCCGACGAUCUUUUAAUAUUUGUGUUAAAGUAGACAUAGCUGAACUCACAUGGAAUCCUGGAGUUUUGUUAUCAGCAGCUUUGCAGUUUGGGAAACAAAGAAACCAAAGCUGAGUGUUUUUGGAAUUCUCGGGUGCCAA`: “RBNS enrichment (R)” 0.352.
Under “RBNS enrichment (R)”, `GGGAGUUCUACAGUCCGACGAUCUAUACCUUGCUUAUUAAAUGAGCGACUUAAAAUGAUUGAAAAUAAUGCUGUUCUUUAGUAGCAACUAAAAUGUGUCUUGCUGUCAUUUAUAUUCCUUUUCCCAGGAAAGAUGGAAUUCUCGGGUGCCAA` is recorded as 0.267.
`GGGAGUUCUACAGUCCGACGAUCCAACUAGAUUUUAAGUAGCAUCCAUAGACUUACUCUUUUUGAGCUUGAAGGACUAAAUUAUUAAUUAUUGUUCAGUAAUGAUCACCUAAUUUUUCCCAUAAGAAUUAUAAUGGAAUUCUCGGGUGCCAA`: “RBNS enrichment (R)” 2.07.
`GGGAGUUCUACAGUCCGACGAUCUGGGGCUCUGGAUCCUUGGGUGUCCUCACUGUGGCCACUCUGCCUGCUGAGGACAGCCAGAAGCCCACACUGCCCUCUCACUUGGGUCCAGUUCUUGAUAGUUGGGGGCAUGGAAUUCUCGGGUGCCAA` — result for “RBNS enrichment (R)”: 0.404.
`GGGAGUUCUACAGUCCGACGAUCCACAGCAACCCUAAUAGGUAUCUCCAUUUUACAUAGGUAAAAACUGAGGCUACAAACAAUCUAUGGUUCCAAAUCCUAUGUGCUUACUGCCGUCUUCUCUUAGAAGGGGAUGGAAUUCUCGGGUGCCAA`: “RBNS enrichment (R)” 0.248.
`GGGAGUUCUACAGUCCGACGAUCGUUUCUUUAUUAGAUAAGAGUGUAUUACCAUUAAAGUCAUUAGUAUAAUAUUGCUUUCAAAAAGAAAUGGUAGACAAAACUAUAAUCCAGCAUCUUUUAUUGCAUUGGAAUGGAAUUCUCGGGUGCCAA` — result for “RBNS enrichment (R)”: 0.644.
`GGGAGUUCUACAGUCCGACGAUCUAUAGUUUUUACAGUGUGAAUCCAACAUUGGCUCAGUAUGCUAAUGUGACAGUCAACAGUUAUCUAAAGCAGGUGAGCUCUGAUGAACAAAUGUAUUUUCAGUGAGUCUGUGGAAUUCUCGGGUGCCAA`: “RBNS enrichment (R)” 0.261.

Repeated from above (series 4):
Under “RBNS enrichment (R)”, `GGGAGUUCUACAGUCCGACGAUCGAGCCAAGGCAAGGAUUUGUGUUUGCCAAAAAUGUUCUGGGGACCCAGCCAGUGUGGGUCUGAACAUCCCCGCCCACCCCCAGACUGCAUUCUCAUCAGGGUUUCUUGUGUGGAAUUCUCGGGUGCCAA` is recorded as 0.699.
`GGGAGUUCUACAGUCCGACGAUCUUUUAAUAUUUGUGUUAAAGUAGACAUAGCUGAACUCACAUGGAAUCCUGGAGUUUUGUUAUCAGCAGCUUUGCAGUUUGGGAAACAAAGAAACCAAAGCUGAGUGUUUUUGGAAUUCUCGGGUGCCAA`: “RBNS enrichment (R)” 0.352.
Under “RBNS enrichment (R)”, `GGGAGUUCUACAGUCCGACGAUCUAUACCUUGCUUAUUAAAUGAGCGACUUAAAAUGAUUGAAAAUAAUGCUGUUCUUUAGUAGCAACUAAAAUGUGUCUUGCUGUCAUUUAUAUUCCUUUUCCCAGGAAAGAUGGAAUUCUCGGGUGCCAA` is recorded as 0.267.
`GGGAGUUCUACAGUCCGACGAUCCAACUAGAUUUUAAGUAGCAUCCAUAGACUUACUCUUUUUGAGCUUGAAGGACUAAAUUAUUAAUUAUUGUUCAGUAAUGAUCACCUAAUUUUUCCCAUAAGAAUUAUAAUGGAAUUCUCGGGUGCCAA`: “RBNS enrichment (R)” 2.07.
